Assay results collected from several papers.
Parts stem from different laboratories: compare values within a part only. Values joined by “and” are separate records of one study, mostly repeats; a detail may differ.
Chain of UniProt P0C264 (whole entry, looked up): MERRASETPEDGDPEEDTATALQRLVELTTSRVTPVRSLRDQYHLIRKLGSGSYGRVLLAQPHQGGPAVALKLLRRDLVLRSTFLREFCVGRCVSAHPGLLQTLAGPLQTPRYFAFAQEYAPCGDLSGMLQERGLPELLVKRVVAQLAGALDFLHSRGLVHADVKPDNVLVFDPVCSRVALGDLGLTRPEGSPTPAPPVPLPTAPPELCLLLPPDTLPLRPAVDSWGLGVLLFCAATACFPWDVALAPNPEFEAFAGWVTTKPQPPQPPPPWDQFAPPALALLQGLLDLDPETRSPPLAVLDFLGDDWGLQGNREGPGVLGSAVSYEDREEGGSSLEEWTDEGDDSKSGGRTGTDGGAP
Chain of UniProt Q05397 (whole entry, looked up): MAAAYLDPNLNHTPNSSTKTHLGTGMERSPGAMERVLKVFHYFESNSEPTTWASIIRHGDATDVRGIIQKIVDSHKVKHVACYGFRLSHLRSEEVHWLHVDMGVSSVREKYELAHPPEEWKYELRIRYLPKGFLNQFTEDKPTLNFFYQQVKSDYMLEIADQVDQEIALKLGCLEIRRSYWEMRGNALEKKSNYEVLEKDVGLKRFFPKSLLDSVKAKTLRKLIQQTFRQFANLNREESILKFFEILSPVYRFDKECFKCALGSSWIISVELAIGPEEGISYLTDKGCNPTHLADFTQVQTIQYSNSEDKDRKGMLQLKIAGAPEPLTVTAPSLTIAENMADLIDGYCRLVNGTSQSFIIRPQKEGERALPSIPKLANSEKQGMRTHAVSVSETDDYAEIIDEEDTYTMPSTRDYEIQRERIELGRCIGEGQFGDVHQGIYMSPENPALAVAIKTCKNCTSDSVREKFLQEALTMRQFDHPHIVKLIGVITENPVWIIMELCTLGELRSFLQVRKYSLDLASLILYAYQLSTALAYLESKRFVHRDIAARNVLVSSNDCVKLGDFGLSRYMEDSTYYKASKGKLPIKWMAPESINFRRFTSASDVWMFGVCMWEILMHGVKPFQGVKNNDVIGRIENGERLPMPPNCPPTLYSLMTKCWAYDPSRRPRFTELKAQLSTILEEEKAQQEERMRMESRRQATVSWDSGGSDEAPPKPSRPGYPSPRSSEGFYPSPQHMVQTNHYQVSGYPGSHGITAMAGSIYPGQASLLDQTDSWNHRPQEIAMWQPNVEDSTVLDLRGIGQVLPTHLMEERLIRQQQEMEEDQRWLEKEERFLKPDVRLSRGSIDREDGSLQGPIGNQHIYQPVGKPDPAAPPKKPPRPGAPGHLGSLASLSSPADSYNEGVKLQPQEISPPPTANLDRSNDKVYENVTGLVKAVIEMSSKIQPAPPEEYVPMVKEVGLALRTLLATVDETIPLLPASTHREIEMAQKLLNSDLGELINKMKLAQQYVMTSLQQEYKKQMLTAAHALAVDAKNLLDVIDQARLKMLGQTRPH
Chain of UniProt P08581 (whole entry, looked up): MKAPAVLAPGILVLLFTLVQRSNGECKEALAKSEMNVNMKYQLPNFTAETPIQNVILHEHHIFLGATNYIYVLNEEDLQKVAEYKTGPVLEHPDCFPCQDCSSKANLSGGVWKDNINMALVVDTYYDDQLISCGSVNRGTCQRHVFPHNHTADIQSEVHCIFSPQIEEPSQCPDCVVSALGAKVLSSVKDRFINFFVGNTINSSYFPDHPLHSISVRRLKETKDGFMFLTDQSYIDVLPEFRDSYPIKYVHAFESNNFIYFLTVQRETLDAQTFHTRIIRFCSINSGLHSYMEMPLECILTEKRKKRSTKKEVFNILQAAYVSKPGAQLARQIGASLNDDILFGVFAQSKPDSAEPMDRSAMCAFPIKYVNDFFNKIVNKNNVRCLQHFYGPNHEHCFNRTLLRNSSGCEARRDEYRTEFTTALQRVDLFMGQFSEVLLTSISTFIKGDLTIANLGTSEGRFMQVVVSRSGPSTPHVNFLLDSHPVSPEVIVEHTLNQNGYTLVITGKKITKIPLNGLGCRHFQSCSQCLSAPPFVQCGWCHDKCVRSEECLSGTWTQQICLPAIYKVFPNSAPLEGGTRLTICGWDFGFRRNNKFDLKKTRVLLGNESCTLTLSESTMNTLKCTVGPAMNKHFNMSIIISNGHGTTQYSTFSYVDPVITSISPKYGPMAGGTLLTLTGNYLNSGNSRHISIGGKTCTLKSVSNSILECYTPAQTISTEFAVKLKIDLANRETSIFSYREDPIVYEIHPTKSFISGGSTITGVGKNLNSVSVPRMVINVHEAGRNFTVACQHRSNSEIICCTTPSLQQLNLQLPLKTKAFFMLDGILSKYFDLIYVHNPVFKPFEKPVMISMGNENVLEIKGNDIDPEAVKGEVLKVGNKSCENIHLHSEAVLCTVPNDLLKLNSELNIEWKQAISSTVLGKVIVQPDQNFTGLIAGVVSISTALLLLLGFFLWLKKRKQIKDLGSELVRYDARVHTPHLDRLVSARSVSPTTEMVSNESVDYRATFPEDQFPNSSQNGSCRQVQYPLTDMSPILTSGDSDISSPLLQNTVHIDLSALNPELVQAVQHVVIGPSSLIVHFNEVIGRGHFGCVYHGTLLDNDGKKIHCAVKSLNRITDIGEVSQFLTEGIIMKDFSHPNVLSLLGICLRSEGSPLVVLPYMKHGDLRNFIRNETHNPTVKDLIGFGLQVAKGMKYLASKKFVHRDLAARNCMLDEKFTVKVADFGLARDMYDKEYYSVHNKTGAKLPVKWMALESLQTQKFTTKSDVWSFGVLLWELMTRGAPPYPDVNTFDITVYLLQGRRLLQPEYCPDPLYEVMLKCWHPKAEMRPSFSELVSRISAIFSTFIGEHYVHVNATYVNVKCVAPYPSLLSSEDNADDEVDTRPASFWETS
Chain of UniProt P78362 (whole entry, looked up): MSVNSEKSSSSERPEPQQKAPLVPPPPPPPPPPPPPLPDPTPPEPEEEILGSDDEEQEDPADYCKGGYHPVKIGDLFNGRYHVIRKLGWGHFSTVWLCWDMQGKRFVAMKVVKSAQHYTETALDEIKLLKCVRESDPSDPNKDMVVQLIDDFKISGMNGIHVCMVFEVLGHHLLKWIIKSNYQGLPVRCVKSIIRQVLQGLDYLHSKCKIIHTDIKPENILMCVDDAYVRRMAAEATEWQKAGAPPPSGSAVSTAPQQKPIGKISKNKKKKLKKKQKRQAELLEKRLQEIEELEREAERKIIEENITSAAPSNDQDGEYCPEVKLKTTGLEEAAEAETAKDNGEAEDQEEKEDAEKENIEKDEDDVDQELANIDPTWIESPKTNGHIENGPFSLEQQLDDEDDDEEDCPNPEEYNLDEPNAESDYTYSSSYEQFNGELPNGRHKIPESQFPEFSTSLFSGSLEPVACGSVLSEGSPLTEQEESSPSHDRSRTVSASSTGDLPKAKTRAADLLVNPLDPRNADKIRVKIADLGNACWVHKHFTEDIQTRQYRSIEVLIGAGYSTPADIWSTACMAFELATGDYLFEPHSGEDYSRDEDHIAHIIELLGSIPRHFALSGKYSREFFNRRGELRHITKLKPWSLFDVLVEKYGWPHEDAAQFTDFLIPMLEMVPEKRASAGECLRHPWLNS

Block 1 — tested at: 1 µM; measurement: remaining binding
SMILES: CC[C@@]1(c2cccc(C(F)(F)F)c2)C2=C(Nc3n[nH]cc31)[C@H](F)C(C)(C)CC2=O (single isomer, unassigned)
SRSF protein kinase 2 (SRPK2, Homo sapiens, UniProt P78362); kinase binding, KINOMEscan; reference: DMSO control: 91%
Hepatocyte growth factor receptor (MET, Homo sapiens, UniProt P08581); binding, competition with immobilised ligand: 81%
Tyrosine-protein kinase ABL1, phosphorylated (ABL1, Homo sapiens, UniProt P00519, T315I); kinase binding, KINOMEscan; reference: DMSO control: 100%
Focal adhesion kinase 1 (PTK2, Homo sapiens, UniProt Q05397); kinase binding, KINOMEscan; reference: DMSO control: 96%
Cyclin-dependent kinase 13 (CDK13, Homo sapiens, UniProt Q14004); binding, competition with immobilised ligand: 92%
Mitogen-activated protein kinase kinase kinase 10 (MAP3K10, Homo sapiens, UniProt Q02779); kinase binding, KINOMEscan; reference: DMSO control: 91%
Cyclin-dependent kinase 3 (CDK3, Homo sapiens, UniProt Q00526); kinase binding, KINOMEscan; reference: DMSO control: 97%
Phosphatidylinositol 4-kinase beta (PI4KB, Homo sapiens, UniProt Q9UBF8); binding, competition with immobilised ligand: 100%
Mitogen-activated protein kinase kinase kinase 19 (MAP3K19, Homo sapiens, UniProt Q56UN5); kinase binding, KINOMEscan; reference: DMSO control: 67%
Uncharacterized serine/threonine-protein kinase SBK3 (SBK3, Homo sapiens, UniProt P0C264); binding, competition with immobilised ligand: 100%
Serine/threonine-protein kinase 25 (STK25, Homo sapiens, UniProt O00506); kinase binding, KINOMEscan; reference: DMSO control: 85%
Activated CDC42 kinase 1 (TNK2, Homo sapiens, UniProt Q07912); binding, competition with immobilised ligand: 97%
Tyrosine-protein kinase ITK/TSK (ITK, Homo sapiens, UniProt Q08881); kinase binding, KINOMEscan; reference: DMSO control: 100%

Block 2 — measurement: inhibition
SMILES: O=C(O)C1(O)Oc2cc(Br)ccc2N(Cc2ccccc2)C1=O (centres unmarked)
Arabidopsis thaliana; hypocotyl length; Col-0, seedlings; 100 µg/mL: 60.6%
Arabidopsis thaliana; hypocotyl length; Col-0; 12.5 µg/mL, 7 days, seed germination, dark: 7.7%
Glycine max; fresh weight; soil surface spray, 150 g ai/ha, 21 days, pre-emergence crop safety: 0.2% and 0.4% and 0.3%
Arabidopsis thaliana; root length; Col-0, seedlings; 3.125 µg/mL: 10.6%
Arabidopsis thaliana; root length; Col-0, seedlings; 6.25 µg/mL; reference: water control: 19.8%
Arabidopsis thaliana; hypocotyl length; Col-0; 100 µg/mL, 7 days, seed germination, dark: 60.6%
Arabidopsis thaliana; hypocotyl length; Col-0, seedlings; 12.5 µg/mL: 7.74%
Amaranthus retroflexus; fresh weight; 150 g ai/ha, post-emergence treatment: 51.9% and 53.9% and 56.4%
Arabidopsis thaliana; root length; Col-0, seedlings; 50 µg/mL: 59.6%
Arabidopsis thaliana; root length; Col-0, seedlings; 25 µg/mL: 41.7%
Arabidopsis thaliana; root length; Col-0, seedlings; 50 µg/mL; reference: water control: 59.6%
Arabidopsis thaliana; root length; Col-0, seedlings; 25 µg/mL; reference: water control: 41.7%
Arabidopsis thaliana; hypocotyl length; Col-0; 25.0 µg/mL, 7 days, seed germination, dark: 18.2%

Block 3 — observed: thermal unfolding; technique: differential scanning fluorimetry; tested at: 5.5 µM; reading: higher = more unfolded; measurement: SYPRO Orange fluorescence
Compound: C[C@@H]1CN(c2ccc(-c3cc(C(=O)NCCOCCOCCOCCOCCNC(=O)/C=C/c4[nH]cc(C(=O)N[C@@H](CC(N)=O)c5ccc(F)c(Cl)c5)c4-c4ccc(Cl)cc4F)ccc3F)cc2NC(=O)c2c[nH]c(=O)cc2C(F)(F)F)C[C@H](C)N1C
WDR5: WD repeat-containing protein 5 (WDR5, Homo sapiens, UniProt P61964)
DCAF1: DDB1- and CUL4-associated factor 1 (DCAF1, Homo sapiens, UniProt Q9Y4B6)
Chain of UniProt Q9Y4B6 (whole entry, looked up): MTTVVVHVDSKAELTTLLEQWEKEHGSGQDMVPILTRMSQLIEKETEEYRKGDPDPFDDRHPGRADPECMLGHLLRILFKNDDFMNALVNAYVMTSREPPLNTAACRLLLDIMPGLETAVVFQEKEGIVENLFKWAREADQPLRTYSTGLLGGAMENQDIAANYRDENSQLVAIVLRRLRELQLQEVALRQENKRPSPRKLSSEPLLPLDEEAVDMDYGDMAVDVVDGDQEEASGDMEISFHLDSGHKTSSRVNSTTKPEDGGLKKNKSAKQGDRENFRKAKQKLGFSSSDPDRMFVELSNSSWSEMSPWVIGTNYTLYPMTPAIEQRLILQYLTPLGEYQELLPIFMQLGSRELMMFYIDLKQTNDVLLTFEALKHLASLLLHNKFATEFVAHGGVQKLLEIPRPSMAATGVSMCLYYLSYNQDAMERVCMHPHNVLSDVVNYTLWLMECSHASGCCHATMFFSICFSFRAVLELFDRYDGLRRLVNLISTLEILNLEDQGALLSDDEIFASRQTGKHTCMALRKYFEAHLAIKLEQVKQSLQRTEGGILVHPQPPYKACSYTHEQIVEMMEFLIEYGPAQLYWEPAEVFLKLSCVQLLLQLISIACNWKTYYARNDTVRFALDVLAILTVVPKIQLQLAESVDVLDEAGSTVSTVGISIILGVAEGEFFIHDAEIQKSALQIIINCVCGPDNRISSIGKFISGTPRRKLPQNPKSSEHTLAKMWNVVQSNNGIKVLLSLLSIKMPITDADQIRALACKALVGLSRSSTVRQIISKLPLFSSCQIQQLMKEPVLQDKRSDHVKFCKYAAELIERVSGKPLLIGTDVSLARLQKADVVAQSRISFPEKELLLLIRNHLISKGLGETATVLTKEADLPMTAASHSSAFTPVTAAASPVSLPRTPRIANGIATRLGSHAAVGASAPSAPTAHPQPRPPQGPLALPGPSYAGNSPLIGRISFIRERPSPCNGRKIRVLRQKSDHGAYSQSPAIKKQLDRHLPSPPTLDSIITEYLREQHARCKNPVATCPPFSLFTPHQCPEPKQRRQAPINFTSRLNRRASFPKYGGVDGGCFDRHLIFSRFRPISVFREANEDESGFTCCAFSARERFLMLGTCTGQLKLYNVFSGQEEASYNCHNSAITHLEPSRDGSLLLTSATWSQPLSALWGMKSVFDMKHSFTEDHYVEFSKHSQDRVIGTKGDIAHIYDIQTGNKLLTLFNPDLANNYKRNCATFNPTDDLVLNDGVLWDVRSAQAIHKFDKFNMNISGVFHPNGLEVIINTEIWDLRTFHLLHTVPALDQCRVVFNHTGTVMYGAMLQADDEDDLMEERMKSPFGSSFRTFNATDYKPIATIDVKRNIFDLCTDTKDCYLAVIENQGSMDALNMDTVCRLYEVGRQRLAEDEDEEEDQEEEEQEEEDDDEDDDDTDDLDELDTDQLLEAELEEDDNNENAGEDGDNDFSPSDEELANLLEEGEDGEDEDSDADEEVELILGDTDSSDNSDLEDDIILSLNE
WDR5; 74.81 °C: 25400 a.u.
WDR5; 85.61 °C: 53000 a.u.
DCAF1; 56.21 °C: 24600 a.u.
DCAF1; 76.01 °C: 48900 a.u.
DCAF1; 51.6 °C: 16500 a.u.
DCAF1; 81.21 °C: 43800 a.u.
DCAF1; 90.21 °C: 34800 a.u.
WDR5; 83.61 °C: 49800 a.u.
WDR5; 70.21 °C: 16400 a.u.
WDR5; 65.21 °C: 14000 a.u.
DCAF1; 59.21 °C: 36900 a.u.

Block 4 — cell line: U-87 MG; tested at: concentration not given; reference: DMSO; measurement: log2 fold change
SMILES: CCN1/C(=C/C=C2\CCCC(/C=C/C3=[N+](CC)c4ccccc4C3(C)C)=C2NCCCCCCCCN2CCC(Nc3nc4ccccc4n3Cc3ccc(F)cc3)CC2)C(C)(C)c2ccccc21
measured: HIVEP2 mRNA: 1.89
measured: LRFN4 mRNA: -1.36
measured: ESPL1 mRNA: -2.18
measured: PIANP mRNA: -0.918
measured: DRAM1 mRNA: 1.31
measured: PLPP4 mRNA: -1.26
measured: ETS1 mRNA: 1.11
measured: TBX3 mRNA: 1.89
measured: TRIP6 mRNA: -1.25
measured: ZNF608 mRNA: -1.73
measured: ERFE mRNA: -0.982
measured: NSD2 mRNA: -0.942
measured: FAM83D mRNA: -2.44
measured: BDKRB2 mRNA: -1.89
measured: CCND3 mRNA: -1.65
measured: SLC7A7 mRNA: 1.8

A few entries again (block 4):
measured: PLPP4 mRNA: -1.26
measured: ETS1 mRNA: 1.11
measured: TBX3 mRNA: 1.89
measured: TRIP6 mRNA: -1.25
